Published values of several laboratories.
Numbered parts are unrelated; each lists some results of a single study. Changes are numbered by the printed parent chain.

Block 1 — method: RNA Bind-n-Seq; molecule type: RNA; matrix: in vitro; tested at: 365 nM; reference: no-protein control; direction: higher = stronger binding; measurement: RBNS enrichment (R)
Target: RNA binding protein fox-1 homolog 2, RRM domain, GST-SBP tag (RBFOX2, Homo sapiens, UniProt O43251-10, residues 100-194)
Notes: natural RNA segment, single round, ends assumed
Constant ends, left off below: GGGAGUUCUACAGUCCGACGAUC … UGGAAUUCUCGGGUGCCAA
Construct (chain): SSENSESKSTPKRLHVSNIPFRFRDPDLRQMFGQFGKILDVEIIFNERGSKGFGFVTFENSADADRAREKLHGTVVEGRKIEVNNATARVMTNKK
UUUCCUCAUGCUUUUUUGCUUAGAUUACUCUUUGACUGUACCUUCUGUUCAAAUUUGCUUCCUUCAUGUCUUUUGAGACAGCAUCUCCUGAUUGAGUUCGCCUCACACCA: 0.493
AUCAUGAGGGCCACCUCCACAUUGUCCCCUGCAGAAUAAAUGCGGAUGACAGAAAGCUUAUGCUGUCUACCACUGAACAGUGAUGGAGAUGGUGCUAAGUUUUUACAGUU: 0.362
AACAUAUUUAAAGAAAUUGAUGGUGUUCAUCAAGCUGGGGCCUGUGGCAGUUGUUGCCUGAGCACCAAGUAACCCAAGCCACCUAUGUGACAACUUCUGGGCCCAGGAGU: 1.78
AUUAUAAAUGGGUGGUUGUUUGGUUUGUUUAUUUUUAUAAUUUUUACUGAUGCUCAGUAACCAUGAAAAACUGUGCACAUUCAUGUACUAAUAGAUCUGUACCUAUCUAU: 0.507
UCCUUUUUCUAUAUCCCCUUAGUCCAGCCUCUCUUCUCAGACAUUUAGCUAUCUGCCUCUUUCCUUUAGCUGGGAAAGUGAGAGCUGGCAUACUAUGCAGUUUUUAUGUU: 1.33
CCUGCGGCCCUACAAAUAACCGGGGGGAGCGGCCCUGCCUGGGGGUGGCCUGGUCCGCGGAGGGUGCACCUGCCCUCCACAGUGGGAGCUGCAUGGGCCUCCACACCACC: 0.776
UGGCUGGGGAGACCUCAUACCCCAUCGCCCACCCCCGUCCUCCUGGUCAUUUCCUCCCAGACACUGUUUUGCCCCAGCGCCCUUCGGAAUCACAGUCCCGCCGUGUCUUA: 0.609
CUGAAAUAGGUGAUCAGGUUAGUGGUGUCUGUCAGCUGUCUAAGAGGUUGGAAAAUGAACUACUCAAGAUAGUCACGAAAAUACUGAAAGUUUGAUUUUUCUUUCCAUAU: 0.746
ACAAAGGAGCCCAGGGAACUAUGUCCCCAGUAGGUUUAACCCAACCAAACACCAGAGGCUGUUAAUUGUGGGUGGUGCUGUCAGUGUUCCUGACGGCUAUGUGUGUAUUU: 0.353
CUCAUUCUUCUGUUUCCAUACCAAAGGCCAGGAGUGCUUCACUGUGCUGGAGCCAUGGUGUCCUUUGGAGGGACAACGGUGCACGCGGCAUGUAUCCUGGCUGAAGCGCU: 3.03
CUUUCUGGAAGACUCAAGAUAUGUCUCUUCAUUCUCUCUCAGUAUUUGUUUACUUUGGUUUUUUUGUUUUUAAUCUCAGAGAGAGGUGUGUUUAGUGGGCACAAGCUGUA: 0.678
UCCUAUCACAUACCAAGUAGUGAGUGGAGAAAGUAUUUUCAGAUUCAAGAAAACUUUGGAAAGUCAGGAACUAAGCUGCUUGGAAAUCAGUGCCACAAGCAUGACCUUGG: 2.08

Block 2 — method: protein-binding microarray; molecule type: double-stranded DNA, one strand shown; matrix: in vitro; tested at: 250 nM; notes: 60-bp whole probe; with: salmon DNA 0.4 mg/ml; reference: random background probes; direction: higher = stronger binding; measurement: log fluorescence; constant ends, left off below: GCCTAGCAC … GTCTTGATTCGCTTGACGCTGCTG
Target: Interferon regulatory factor 7, full length, phosphomimetic (IRF7, Homo sapiens, UniProt Q92985, residues 1-503, S101K/S471D/S472D/S475D/S476D/S477D/S483D/S484D/S487D)
Target sequence (chain): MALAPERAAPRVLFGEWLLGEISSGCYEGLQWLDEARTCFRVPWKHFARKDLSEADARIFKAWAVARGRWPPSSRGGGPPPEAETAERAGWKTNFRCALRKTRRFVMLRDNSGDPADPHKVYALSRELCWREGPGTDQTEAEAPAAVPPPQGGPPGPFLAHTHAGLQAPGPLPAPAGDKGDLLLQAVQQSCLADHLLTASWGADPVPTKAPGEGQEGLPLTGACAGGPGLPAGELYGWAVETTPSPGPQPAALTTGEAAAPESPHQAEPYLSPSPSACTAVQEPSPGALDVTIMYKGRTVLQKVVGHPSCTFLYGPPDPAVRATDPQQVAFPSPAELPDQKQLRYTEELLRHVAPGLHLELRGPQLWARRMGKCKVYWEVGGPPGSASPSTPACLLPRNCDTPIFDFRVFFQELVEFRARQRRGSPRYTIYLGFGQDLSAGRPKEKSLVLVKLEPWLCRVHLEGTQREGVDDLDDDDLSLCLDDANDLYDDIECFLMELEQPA
GACGGTTTCCTACGGCTGACGTGCTAG: 0.985 z-score
GACGGTTTCGGACTGGAGACGTGCTAG: 3.73 z-score
ATGTAATTCCTGCCTGAGCTCGTGCTA: 0.0851 z-score
GACGATATCAGTATCGAGCCGTGCTAG: -0.368 z-score
GAAGGTCTCGGTATCGGGACGTGCTAG: 1.56 z-score
TTGGATTCCAGTTTCGATTAGTGCTAG: 9.54 z-score
GACGTACTGGGGTTTCGGGACGTGCTA: 1.17 z-score
GCCGGACTGCTTATCCTGACGTGCTAG: -0.446 z-score
GACGGTATCCTTTTCCTTACGTGCTAG: 1.26 z-score
GACGGTATCGGACCGGGGACGTGCTAG: -0.36 z-score
TTAGGTCTCGGTATCGGTTAGTGCTAG: 3.42 z-score
CTTAGTTTGTATATATTTTAGTGCTAG: 0.491 z-score
TTAGGCCTGCTTTTCCTTTAGTGCTAG: 1.27 z-score
TCATAATTCTGATTGGAACTGTGCTAG: 0.314 z-score
TCATGCCTGTTTTTCCCACTGTGCTAG: 0.765 z-score
TTAGGTAGCGACTATCGGTTAGTGCTA: -0.672 z-score
TCATTTCCCAACATCAGACTGTGCTAG: 4.09 z-score
ATGAGCTTCAAACCATAACCGTGCTAG: -0.263 z-score
GACGATTTCGGGTATCGAGAAGTGCTA: 0.858 z-score
CACGGTTTCCTTTCCCTGACGTGCTAG: 5.1 z-score
TCAATCCTCTCACCTCAGACTGTGCTA: -0.172 z-score
TCAGGAAATGGGAAACCCACTGTGCTA: -0.087 z-score
TCAAGTTTCACTGCTGCACTGTGCTAG: 0.493 z-score
AACCGCCTCTCCCTTAGACGGTGCTAG: 0.446 z-score
GACGGACTGTGTTTCGGGACGTGCTAG: 0.382 z-score

Block 3 — method: EMSA with sequencing; molecule type: double-stranded DNA, one strand shown; matrix: in vitro; tested at: 10 and 20 nM; reference: negative control set to 0; direction: higher = stronger binding; measurement: normalised bound fraction
Target: Hepatocyte nuclear factor 3-alpha (Foxa1, Mus musculus, UniProt P35582, residues 1-468, full length assumed)
Sequence of UniProt P35582 (whole entry, looked up): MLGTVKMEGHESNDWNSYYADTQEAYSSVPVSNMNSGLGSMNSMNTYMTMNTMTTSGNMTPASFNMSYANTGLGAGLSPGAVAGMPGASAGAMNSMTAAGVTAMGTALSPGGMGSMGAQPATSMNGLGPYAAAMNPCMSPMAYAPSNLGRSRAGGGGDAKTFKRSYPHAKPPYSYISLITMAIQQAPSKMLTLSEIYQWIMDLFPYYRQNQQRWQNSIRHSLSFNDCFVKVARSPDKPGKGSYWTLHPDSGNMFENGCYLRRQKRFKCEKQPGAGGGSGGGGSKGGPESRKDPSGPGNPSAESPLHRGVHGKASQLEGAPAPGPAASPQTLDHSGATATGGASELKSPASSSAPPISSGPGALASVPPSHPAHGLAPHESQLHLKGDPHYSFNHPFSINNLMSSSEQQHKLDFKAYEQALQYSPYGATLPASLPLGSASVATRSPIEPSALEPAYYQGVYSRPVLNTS
Notes: whole designed probe, mean of two concentrations, ends assumed
Constant ends, left off below: GTGAGCGGTGCCCATTGATGGGGAAC … TTTCACTGGGATCGTGGGGAC
ATTCCAGGCAAAGCCAAATGACGATGCACCAGTGAGTCACCAGTGAGATTGCATTTAAAATCTAGCAGCCTCAGAGCCAAGACCAGCCTTGTGTAAACAGAGTTCAGGGAGGAGGGAAGATAGTGGAGTGAGACGTGCCGAGGCCAGCCGGCCTCTGGGCTTGGGGTGCGCTGACCTCTGGGGAGCCGAGTGC: 0.475 ratio
TCTAAATCTAATCAATTAAAATGGCTTTTTATAAGTAGCTGGATTTTTATGACTGCAAATATTGCTTTCCTGCTTATTTTCCTTCTAATCCTGAGATTACTTAGCTAGTTCAAGGAGTCAAGGCAGTACAGTGTATATAAGGAAGGGCTTTGGCATTAGTCAACTCTGGGTCATATCCTAGTTTCCCAGTTAC: 0.0283 ratio
CCTGAAGGCAGCTGGGGTCAGGGAACAAGGCAACTGAATATCCTCCATCAGGAAATCCTAAGAGAATAAAAAGACCAGTCTTGTAACATAAATATAATCTTCTAATCAAATTAGCCAATTAGAAAAACATTTTTAAGAAAAGGCAATCTTTTACCAATTTGTCCTATGTATCTTTTGCATTTTTTCTCCCTAA: -0.0168 ratio
CTTCCAAAGGTCAAGTTGATACTGCATGACCTAAGGCCCCCGCCATAAATTGCGTAGATTGCATAGATGACCTGGCACAACCCAAAGCCTTAGGTAATTTAAGACACTCTTAGAAAACAGGGTATTCCAAAGGCTCAGGGATTATCTTTCAGGAGATGGGCAGGGCCCAGTTGGGTTTTTTTTTTTTTTTTTT: 0.0182 ratio
TGCGGTGACGGACAGGGTTGGCGTGGAACCATTCCCCGCCCCTTTTACCAGCCTTTATGGGACCGATGAGACAACTCTTTAACTCTCCTTTGGGTGTTTACCTAAAATTTATTGGCTCTGTAAACAGTATTAATCACAGTAGTATTAACCTTCCCTGGAGCGCTTCCGAGTGTAAATGGCAGTTCTTGGCACT: 0.27 ratio
ATCACTGATAAGTGAAGTTCCATAGAGGCCTTCCAATACCCTGCTTAACAGCTTATAAGCAAATATGCCCACTAGTAAAGAATAAGTGTTATGTAAACAAGAAAGTATGCAAATTCTGGTCATGCTCATCAGCAAAGGCTTTTCTTGCAATAGACTGAGTGCCGTTTTCCAGGAGTTAATAAATTGGACAAAA: 0.542 ratio
ATCTTCCCCCTCTTCCTTGCCCCACCAGCTCACCTTCCCGGGTATCTGCAAATAAGTATTTATTTTCAAGCCGGCATTCGTTAACCCTCTTCACGCGCATACTGCTGTTTACTTTGGATCTAACATGGTCCTTTGGCGACGCCAGGCTCCGGGAGAGCAAAGCACCGTGTCAGGGCCATGATCCGGGGTGGCC: 0.391 ratio
GCCGTTGGTTCATGCTGTGGCTACTGCCAATTCTTTAAGTGTTCCCTCACCTCAAATCTTTGATGCACGAGGTCCAGCAGTCGTCACTACTAAGTCATCTCTGAGACATGTAAATGTTTGTGAAATGAGTAATAACCAGGATGGTACAATTAAGCTCCCCATGAGCTCCTCCCCACTGCCACCTCAGGCCTCA: -0.0449 ratio

Block 4 — method: DHFR PCA, deep sequencing; matrix: yeast; with: (+)-ABA 4.8 µM; reference: wild-type fitted maximum; direction: higher = stronger binding; measurement: relative binding score
Target: ABI1, truncated, D143A, DHFR fusion (Arabidopsis thaliana)
Notes: methotrexate growth selection, single substitutions
Parent: PYL1, truncated, DHFR fusion (Arabidopsis thaliana); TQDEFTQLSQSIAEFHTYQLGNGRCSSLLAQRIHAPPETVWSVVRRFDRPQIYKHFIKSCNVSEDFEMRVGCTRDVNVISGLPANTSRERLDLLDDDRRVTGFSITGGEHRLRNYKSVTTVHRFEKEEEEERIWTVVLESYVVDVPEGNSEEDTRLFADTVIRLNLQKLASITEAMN
N85A: 83.6%
G108N: -1.83%
S26K: 31.7%
L164K: 35%
L93V: 80.4%
M68C: 59.7%
F157A: 1.23%
V44A: 22.7%
A84D: 14.5%
C25Q: -29.6%
E130W: 36%
C60P: 5.92%
V161T: 2.98%
V100C: 49.6%
N177F: 75.8%
Q7K: 65.1%

Excerpt of the above (block 1):
AUUAUAAAUGGGUGGUUGUUUGGUUUGUUUAUUUUUAUAAUUUUUACUGAUGCUCAGUAACCAUGAAAAACUGUGCACAUUCAUGUACUAAUAGAUCUGUACCUAUCUAU: 0.507
UCCUUUUUCUAUAUCCCCUUAGUCCAGCCUCUCUUCUCAGACAUUUAGCUAUCUGCCUCUUUCCUUUAGCUGGGAAAGUGAGAGCUGGCAUACUAUGCAGUUUUUAUGUU: 1.33
CCUGCGGCCCUACAAAUAACCGGGGGGAGCGGCCCUGCCUGGGGGUGGCCUGGUCCGCGGAGGGUGCACCUGCCCUCCACAGUGGGAGCUGCAUGGGCCUCCACACCACC: 0.776
UGGCUGGGGAGACCUCAUACCCCAUCGCCCACCCCCGUCCUCCUGGUCAUUUCCUCCCAGACACUGUUUUGCCCCAGCGCCCUUCGGAAUCACAGUCCCGCCGUGUCUUA: 0.609
